{"data": "Measurements collected from several papers", "note": "A part holds a random share of what one study measured. Substitutions count along the parent as printed."}
{"data": "Sample 1", "target": "Histone acetyltransferase KAT6A, winged helix 2, GST fusion (KAT6A, Homo sapiens, UniProt Q92794, residues 85-181)", "method": "protein binding microarray", "form": "double-stranded DNA, one strand shown", "medium": "in vitro", "tested at": "not given", "notes": "8-mer, flanks averaged, mean of 2 arrays, mostly near background", "baseline": "not given", "reading": "higher = stronger binding", "Target sequence (chain)": "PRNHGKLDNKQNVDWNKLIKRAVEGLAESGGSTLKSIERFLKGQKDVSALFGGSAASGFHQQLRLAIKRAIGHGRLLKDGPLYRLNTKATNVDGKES"}
{"Sequence": "TCCTGAGA", "E-score": 0.0548}
{"Sequence": "GAAACATA", "E-score": -0.0307}
{"Sequence": "CATGTTAC", "E-score": -0.0208}
{"Sequence": "CAGAGGAA", "E-score": 0.124}
{"Sequence": "AATCCAAT", "E-score": -0.129}
{"Sequence": "GAGGAATC", "E-score": 0.00642}
{"Sequence": "GCGCAGGA", "E-score": -0.0711}
{"Sequence": "CGAATAGA", "E-score": -0.0285}
{"Sequence": "AATCGAAT", "E-score": 0.0372}
{"Sequence": "CAGGCGGA", "E-score": 0.263}
{"Sequence": "CTAATAGC", "E-score": -0.0993}
{"Sequence": "TAAGGTCA", "E-score": -0.146}
{"data": "Sample 2", "target": "Probable WRKY transcription factor 33, N-terminal DNA-binding domain (WRKY33, Arabidopsis thaliana, UniProt Q8S8P5, residues 169-264)", "method": "DNA-protein interaction ELISA", "form": "double-stranded DNA, one strand shown", "medium": "in vitro, bacterial lysate", "tested at": "not given", "notes": "whole dsDNA probe, crude lysate protein", "baseline": "highest signal in screen", "reading": "higher = stronger binding", "Residues (chain)": "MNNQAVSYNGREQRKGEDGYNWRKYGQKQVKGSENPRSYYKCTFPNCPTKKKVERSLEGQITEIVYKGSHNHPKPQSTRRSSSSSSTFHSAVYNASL"}
{"Sequence": "AAAAAATATCGGGCACGGTCTTGTCTAAAA", "relative absorbance": "25.8 % of maximum"}
{"Sequence": "AAAAAAAGGTCATTGCTGCTGGTGTTAAAA", "relative absorbance": "23.4 % of maximum"}
{"Sequence": "AAAAAATATATTTTCAGCTTTAATCTAAAA", "relative absorbance": "29.4 % of maximum"}
{"Sequence": "AAAAAATTCGTATCTGTACCCTATGCAAAA", "relative absorbance": "22.4 % of maximum"}
{"Sequence": "AAAAAAATCGTTGTTATCGTATTTATAAAA", "relative absorbance": "17.8 % of maximum"}
{"Sequence": "AAAAAACTCGCGCTTGCATCTGTGCGAAAA", "relative absorbance": "21.9 % of maximum"}
{"Sequence": "AAAAAAGCTTCGCGCCAGCGGGAAAA", "relative absorbance": "18.8 % of maximum"}
{"Sequence": "AAAAAACGTTAACACTGATTTAGGGTAAAA", "relative absorbance": "16 % of maximum"}
{"Sequence": "AAAAAATCGGGCCCCGTTAGCACTCTAAAA", "relative absorbance": "20.3 % of maximum"}
{"Sequence": "AAAAAATAGACCCTGACCCACCATTGAAAA", "relative absorbance": "27.4 % of maximum"}
{"Sequence": "AAAAAATTCTTACTTTTGTCTTTACTAAAA", "relative absorbance": "32.2 % of maximum"}
{"Sequence": "AAAAAAGCTCCCGTCTCTTAGTTCTAAAAA", "relative absorbance": "24.2 % of maximum"}
{"data": "Sample 3", "target": "CCNF, cyclin fold, Cln2 fusion (human)", "method": "yeast growth competition, sequencing", "medium": "yeast", "notes": "strong parent motif", "baseline": "not given", "reading": "higher = stronger binding", "starting sequence": "CDKN1A docking peptide (human); SKACRRLFGPVDS"}
{"Change": "SKACRLLFGPVDS [R6L]", "normalised enrichment score": 4.19}
{"Change": "SKACRRLFGEVDS [P10E]", "normalised enrichment score": 7.42}
{"Change": "SNACRRLFGPVDS [K2N]", "normalised enrichment score": 7.94}
{"Change": "SKACRRNFGPVDS [L7N]", "normalised enrichment score": 0.108}
{"Change": "SKACRRLFGPIDS [V11I]", "normalised enrichment score": 7.7}
{"data": "Mixed results"}
{"Substance": "PhoQ, residues 284 288 289 292 302 303 SMYGEC", "target": "PhoP, residues 12 14 15 18 19 LHHSG (Escherichia coli, UniProt P23836)", "test": "Sort-seq, refers to: YFP reporter", "test system": "E. coli", "setting": "PhoQ-PhoP variant library, added: 10 µM Mg2+", "how to read": "baseline: high Mg2+ state, higher = stronger signaling", "measurement": "fold induction", "result": 2.12}
{"note": "Repeated from above (sample 2):"}
{"Sequence": "AAAAAACGTTAACACTGATTTAGGGTAAAA", "relative absorbance": "16 % of maximum"}
{"Sequence": "AAAAAATCGGGCCCCGTTAGCACTCTAAAA", "relative absorbance": "20.3 % of maximum"}
{"Sequence": "AAAAAATAGACCCTGACCCACCATTGAAAA", "relative absorbance": "27.4 % of maximum"}
{"Sequence": "AAAAAATTCTTACTTTTGTCTTTACTAAAA", "relative absorbance": "32.2 % of maximum"}
